Measurements collected from several papers.
Lines come from different studies, so protocols differ. Where no end group is shown, it is not given here.
B1: disulfide; chain GIFSSRKCKTPSKTFKGICTRDSNCDTSCRYEGYPAGDCKGIRRRCMCSKPC (disulfide (positions not given here))

| Substance | organism | assay | test system | setting | MIC |
| --- | --- | --- | --- | --- | --- |
| Teicoplanin A2-2 | Enterococcus faecium | – | vancomycin-susceptible | – | 0.5 µg/mL |
| Polymyxin B | Pseudomonas aeruginosa | broth microdilution | P3 clinical isolate | 20 h | 2 µg/mL |
| colistin | Staphylococcus aureus | – | USA300 | combination, median and range, added: OA 32 µg/mL | 128 µg/mL |
| tunicamycin | Enterococcus faecium | EUCAST broth microdilution | ATCC 51559 MDR VRE | 18-24 h, 37 °C | 64 µg/mL |
| DAPT | Enterococcus faecalis | – | ATCC 51575 vancomycin-resistant | – | 12.5 µg/mL |
| polymyxin B | Acinetobacter baumannii | – | colistin-resistant pmrB mutant, Mueller-Hinton broth | – | 16 µg/mL |
| Polymyxin B | Acinetobacter baumannii | broth microdilution, MH medium | carbapenem-resistant CCARM 12004 | 16 h, 37 °C | 4 µM |
| thiostrepton | Enterococcus faecium | – | VanA vancomycin-resistant | – | 0.06 µg/mL |
| colistin | Klebsiella pneumoniae | broth microdilution | OmpK36-truncated, KPC-2 | – | 32 µg/mL |
| colistin sulfate | Pseudomonas aeruginosa | broth microdilution | CICC 21625 | – | 6.8 µM |
| colistin | Pseudomonas aeruginosa | – | GFP-expressing, RPMI with 10% FBS | 18 to 24 h, 37 °C | 0.98 µM |
| colistin | Pseudomonas aeruginosa | – | 1188712 multidrug-resistant | – | 1 µg/mL |
| B1 | Botrytis cinerea | fungal growth | – | – | 1.5 µM |
| Polymyxin B | Klebsiella pneumoniae | broth microdilution | KPC-25 producing | – | 32 µg/mL |
| colistin | Aspergillus fumigatus | – | A1163 | – | > 80 µM |

Excerpt of the above:
| Substance | organism | assay | test system | setting | MIC |
| --- | --- | --- | --- | --- | --- |
| tunicamycin | Enterococcus faecium | EUCAST broth microdilution | ATCC 51559 MDR VRE | 18-24 h, 37 °C | 64 µg/mL |
